Experimental data of several laboratories.
Compare with care: the assays were run in different laboratories.
UCHL1: Ubiquitin carboxyl-terminal hydrolase isozyme L1 (UCHL1, Homo sapiens, UniProt P09936)
Sequence of UniProt P09936 (whole entry, looked up): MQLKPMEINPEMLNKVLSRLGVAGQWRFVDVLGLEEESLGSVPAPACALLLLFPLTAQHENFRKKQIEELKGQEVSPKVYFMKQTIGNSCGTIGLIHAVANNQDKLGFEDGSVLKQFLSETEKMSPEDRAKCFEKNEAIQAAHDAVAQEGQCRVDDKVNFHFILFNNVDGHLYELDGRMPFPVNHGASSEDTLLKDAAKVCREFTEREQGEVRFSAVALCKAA

Compound	target or system	test	test system	conditions	how to read	measurement	result
CO[C@H]1C[C@@H]2CC[C@@H](C)[C@@](O)(O2)C(=O)C(=O)N2CCCC[C@H]2C(=O)O[C@H]([C@H](C)C[C@@H]2CC[C@@H](O)[C@H](OC)C2)CC(=O)[C@H](C)/C=C(\C)[C@@H](O)[C@@H](OC)C(=O)[C@H](C)C[C@H](C)/C=C/C=C/C=C/1C	Trypanosoma cruzi	–	Vero, Tulahuen β-galactosidase	–	baseline: Vero CC50 over T. cruzi IC50	selectivity index	2
Cc1cc(C)c(C#N)c(NCC(O)c2ccc(F)cc2)n1 (centres unmarked)	Trypanosoma cruzi	–	MRC5, Tulahuen, beta-galactosidase	intracellular amastigotes	–	EC50	33.3 µM
Cl.OCCNc1nc(NCC2CCCO2)c2ccccc2n1 (centres unmarked)	Trypanosoma cruzi	mRNA translation, item: Renilla luciferase reporter	cell-free translation extract	40 µM, 2 h	–	inhibition	38.2%
Cc1ccc(Cn2cc(C(=O)NN)c(=O)c3cc(Oc4ccccc4)ccc32)cc1	Trypanosoma cruzi	parasite growth	MRC-5 host cells	–	–	EC50	inactive
Cc1cc(C)c(C#N)c(SCC(=O)N2CCOCC2)n1	Trypanosoma cruzi	–	MRC5, Tulahuen, beta-galactosidase	intracellular amastigotes	–	EC50	49 µM
O=C(Cn1ccnc1[N+](=O)[O-])NCc1ccccc1	Trypanosoma cruzi	intracellular amastigote growth	Vero, Tulahuen, DTU VI	–	baseline: Vero TC50 over amastigote IC50	selectivity index	> 89.7
Cl.Clc1cccc(Nc2nc(N3CCOCC3)c3ccccc3n2)c1	Trypanosoma cruzi	mRNA translation, item: Renilla luciferase reporter	cell-free translation extract	40 µM, 2 h	–	inhibition	55.1%
O=C(CCl)NC1CN(S(=O)(=O)c2ccc3c(c2)OCCO3)C1	UCHL1	covalent, intact protein LC-MS	–	12.5 µM	–	labelling	14.1%
Cc1cc(C)c(C#N)c(SCC(=O)c2ccccc2C)n1	Trypanosoma cruzi	–	MRC5, Tulahuen, beta-galactosidase	intracellular amastigotes	–	EC50	0.1 µM
CN(C)c1nc(NCC2CCCO2)c2ccccc2n1.Cl (centres unmarked)	Trypanosoma cruzi	mRNA translation, item: Renilla luciferase reporter	cell-free translation extract	40 µM, 2 h	–	inhibition	45.9%
CC1=C(/C=C/C(C)=C/C=C/C(C)=C/C=C/C=C(C)/C=C/C=C(C)/C=C/C2=C(C)CCCC2(C)C)C(C)(C)CCC1	Trypanosoma cruzi	–	Vero, Tulahuen β-galactosidase	–	baseline: Vero CC50 over T. cruzi IC50	selectivity index	2.8
COn1cc(CNC(=S)SC)c2ccccc21	Trypanosoma cruzi	parasite growth, [3H]uracil incorporation	rat L6E9 myoblasts, amastigote	72 h	–	IC50	1.2 µM
Cc1cc(C)c(C#N)c(SCC(N)c2ccccc2)n1 (centres unmarked)	Trypanosoma cruzi	–	MRC5, Tulahuen, beta-galactosidase	intracellular amastigotes	–	EC50	19.5 µM
CO[C@H]1/C=C/O[C@@]2(C)Oc3c(C)c(O)c4c(c3C2=O)C2=NC3(CCN(CC(C)C)CC3)NC2=C(NC(=O)/C(C)=C\C=C\[C@H](C)[C@H](O)[C@@H](C)[C@@H](O)[C@@H](C)[C@H](OC(C)=O)[C@@H]1C)C4=O	Trypanosoma cruzi	–	Vero, Tulahuen β-galactosidase	–	baseline: Vero CC50 over T. cruzi IC50	selectivity index	2.4
CC(Cl)C(=O)Nc1ccc(C(=O)N(C)C2CCCN(C)C2)cc1 (centres unmarked)	UCHL1	covalent, intact protein LC-MS	–	12.5 µM	–	labelling	9.78%
Cl.c1ccc(CNc2nc(NCC3CCCO3)c3ccccc3n2)nc1 (centres unmarked)	Trypanosoma cruzi	mRNA translation, item: Renilla luciferase reporter	cell-free translation extract	40 µM, 2 h	–	inhibition	46.9%
O=C(Nc1cccc2c(=O)cc(-c3nnn[nH]3)oc12)c1ccc(OCCCCc2ccccc2)cc1	Trypanosoma cruzi	–	Vero, Tulahuen β-galactosidase	–	baseline: Vero CC50 over T. cruzi IC50	selectivity index	0.8
O=C(Cn1ccnc1[N+](=O)[O-])NCc1ccccc1	Trypanosoma cruzi	trypomastigote release	CHO	5 µM	–	inhibition	64%
COC(=O)N[C@H](C(=O)N1CC2(CC2)C[C@H]1c1nc(-c2ccc3c(c2)C(F)(F)c2cc(-c4ccc5[nH]c([C@@H]6[C@H]7CC[C@H](C7)N6C(=O)[C@@H](NC(=O)OC)C(C)C)nc5c4)ccc2-3)c[nH]1)C(C)C	Trypanosoma cruzi	–	Vero, Tulahuen β-galactosidase	–	baseline: Vero CC50 over T. cruzi IC50	selectivity index	873
CC(=O)Oc1ccccc1C(=O)CSc1nc(C)cc(C)c1C#N	Trypanosoma cruzi	–	MRC5, Tulahuen, beta-galactosidase	intracellular amastigotes	–	EC50	1.49 µM

Repeated from above:
Compound	target or system	test	test system	conditions	how to read	measurement	result
Cc1cc(C)c(C#N)c(NCC(O)c2ccc(F)cc2)n1 (centres unmarked)	Trypanosoma cruzi	–	MRC5, Tulahuen, beta-galactosidase	intracellular amastigotes	–	EC50	33.3 µM
Cl.OCCNc1nc(NCC2CCCO2)c2ccccc2n1 (centres unmarked)	Trypanosoma cruzi	mRNA translation, item: Renilla luciferase reporter	cell-free translation extract	40 µM, 2 h	–	inhibition	38.2%
